# Measured values from different studies.
# A part holds a random share of what one study measured. Positions count from the first letter of the parent shown.

# Set 1
# Target: RING finger protein unkempt homolog, zinc fingers 1-6, GST-SBP tag (UNK, Homo sapiens, UniProt Q9C0B0, residues 30-357)
# Technique: RNA Bind-n-Seq
# Form: RNA
# Sample: in vitro
# Concentration: not given
# Notes: RNA with constant flanks, human-mouse chimeric sites, ends assumed
# Relative to: input RNA pool
# Reading: higher = stronger binding
# Residues (chain): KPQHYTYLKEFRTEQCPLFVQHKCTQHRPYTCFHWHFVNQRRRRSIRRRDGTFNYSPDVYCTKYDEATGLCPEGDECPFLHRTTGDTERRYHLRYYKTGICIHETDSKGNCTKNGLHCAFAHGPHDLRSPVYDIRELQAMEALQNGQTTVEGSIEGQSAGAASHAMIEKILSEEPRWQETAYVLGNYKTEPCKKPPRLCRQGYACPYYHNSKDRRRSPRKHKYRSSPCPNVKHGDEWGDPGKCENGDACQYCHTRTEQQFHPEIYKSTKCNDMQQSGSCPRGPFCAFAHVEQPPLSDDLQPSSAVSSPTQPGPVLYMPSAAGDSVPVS
Strand,bound/input enrichment
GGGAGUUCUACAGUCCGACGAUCGUGUCCUGCUUUCAACUUAAAUCACUGAGGCAUCUCUACUGUUCUGUGAGCAUCAGGACUGUAGCGCUUGCCACCACCAUGAGAGUUGUUAAGCAGCCUUUCUGUGGAGGGUGGGAAUGACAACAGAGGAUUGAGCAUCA,0.0973 ratio
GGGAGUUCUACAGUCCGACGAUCACAGUUAUAUUGUUGAGUUUCAUUUUCAUAUAUUCUUGUAGUGUCUGCUUGCCUGUGACUUCUGGUAAAAUAAAAUAAGCCUUUGAAUUAGCAUGCUCAUGGUAUUUAACAUUUUCUAAACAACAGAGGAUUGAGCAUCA,0.848 ratio
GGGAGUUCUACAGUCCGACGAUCCGCCUGGAUGAGGCGGGUGUCACAGAUGAAGUGCUAGAUUCUGCCAUGCAAGCCUUCCUUCUGGAGGUCAUUGUUAAACAUGGGGAGCCAGCCCCUUAUUUAUGUAACAAAGAUCCGUUUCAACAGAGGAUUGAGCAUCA,0.0895 ratio
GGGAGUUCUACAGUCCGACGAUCAGAGAAAUGAGAAAGAAUCUUACACAAGAAGAGAUGCAAAGAAUGUCUACUAGAGUCCUUUUAGCCACUCUUUCCAUCCCUAUUACUCCUGAGCGAACUGAUAUUGCUCGACUUUUGGAUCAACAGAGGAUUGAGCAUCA,0.0797 ratio
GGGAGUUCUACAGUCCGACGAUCAUCCAGUACUCCAAUCACAAAGAACUAAAGACAGAUAAUACAUUAAACCAACGUGCUCAGGCAGUUCUUCAAGCUGUGACAGCUGUCCAGACAGCAAAUACUCCUCUUAGUGGCACCACACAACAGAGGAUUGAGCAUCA,0.404 ratio
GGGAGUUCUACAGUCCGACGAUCUAAGUCCUGUGCCAGCACUUCGCUCAUAAAGUUUUAAAUUCAAGAAAAAUAGUGUUUGUUUCCUGAUUAUUGUAUCCAAUACUUUGCCUAGUAUGUAACUCACUCUUCUGGAUAAAUAAACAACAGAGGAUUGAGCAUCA,11.3 ratio
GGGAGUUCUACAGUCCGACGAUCGAUCCACAGUGGUCUGAGGAACAGCUGAUUGCUGCAAAAUUCUGUUUUGCUGGCCUUGUUAUAGGGCAGACUGAAGUGGACAUCAUGAGUCAUGCCACACAGGCUAUUUUUGAAAUUCUGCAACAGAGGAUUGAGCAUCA,0.216 ratio
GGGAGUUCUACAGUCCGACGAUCCAGGGCAUCAUCUCUCGUGCUGUUAGACACCUUUUUAAGAGUAUUGAUGAGAAAAAGCACAUAGCAAUUAAAAACGGGCUGCCCCCUCCUGAAUUCAAAGUGAAUGCCCAGUUCCUAGAGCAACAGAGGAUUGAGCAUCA,0.872 ratio

# Set 2
# Target: TAR DNA-binding protein 43, full length, His tag (TARDBP, Homo sapiens, UniProt Q13148, residues 1-414)
# Technique: RNA Bind-n-Seq
# Form: RNA
# Sample: in vitro
# Concentration: 20 nM
# Notes: 6-mer, flanks averaged, single round
# Added: 150 mM LiCl
# Relative to: input library
# Reading: higher = stronger binding
Strand,6-mer enrichment (R)
GACCGU,0.869
AGUGCA,1
UAUUAG,1
UGGGAU,1.09
CCGGCC,0.957
UGGAGU,1.16
GGGGAG,1.42
CUGUGG,1.12

# Single results of other studies
# P1: PafA, mature enzyme, eGFP fusion (Elizabethkingia meningoseptica, UniProt Q9KJX5); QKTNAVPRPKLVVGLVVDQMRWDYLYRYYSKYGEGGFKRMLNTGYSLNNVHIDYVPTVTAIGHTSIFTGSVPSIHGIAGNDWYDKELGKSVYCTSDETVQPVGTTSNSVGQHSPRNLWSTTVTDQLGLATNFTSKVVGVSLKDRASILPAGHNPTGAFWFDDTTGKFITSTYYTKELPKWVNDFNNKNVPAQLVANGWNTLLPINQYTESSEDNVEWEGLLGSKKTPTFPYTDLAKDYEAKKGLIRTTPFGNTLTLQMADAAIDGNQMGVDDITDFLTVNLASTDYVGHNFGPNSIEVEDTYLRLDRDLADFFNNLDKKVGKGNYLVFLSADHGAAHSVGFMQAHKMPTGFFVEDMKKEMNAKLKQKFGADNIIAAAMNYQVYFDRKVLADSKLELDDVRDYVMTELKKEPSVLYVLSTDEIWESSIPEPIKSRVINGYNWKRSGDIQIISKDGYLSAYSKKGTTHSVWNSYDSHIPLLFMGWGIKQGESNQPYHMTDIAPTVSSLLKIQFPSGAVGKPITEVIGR
# P2: viral docking peptide; KGVKRKLFAEDSS; partner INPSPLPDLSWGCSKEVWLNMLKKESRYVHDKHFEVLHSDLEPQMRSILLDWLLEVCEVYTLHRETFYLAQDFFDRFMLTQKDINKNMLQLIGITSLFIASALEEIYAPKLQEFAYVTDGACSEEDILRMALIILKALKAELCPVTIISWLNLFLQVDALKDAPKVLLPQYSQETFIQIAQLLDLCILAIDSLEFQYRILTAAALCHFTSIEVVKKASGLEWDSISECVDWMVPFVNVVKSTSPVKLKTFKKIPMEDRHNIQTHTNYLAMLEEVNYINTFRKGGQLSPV
Variant,target,assay,test system,setting,scale,endpoint,value
P1 W441V,"vanadate, free oxyanion",microfluidic competitive inhibition,"in vitro, cell-free expressed","not given, derived from inhibition constants, unchanged parent 676 nM",lower = stronger binding,oxyanion analog dissociation constant,0.81 µM
P2 S12E,"CCNE2, cyclin fold, Cln2 fusion (human)","yeast growth competition, sequencing",yeast,strong parent motif,"relative to: not given, higher = stronger binding",normalised enrichment score,6.7

# Some of these lines once more (set 1):
Strand,bound/input enrichment
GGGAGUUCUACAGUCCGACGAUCCGCCUGGAUGAGGCGGGUGUCACAGAUGAAGUGCUAGAUUCUGCCAUGCAAGCCUUCCUUCUGGAGGUCAUUGUUAAACAUGGGGAGCCAGCCCCUUAUUUAUGUAACAAAGAUCCGUUUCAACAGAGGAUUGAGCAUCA,0.0895 ratio
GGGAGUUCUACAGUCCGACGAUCGUGUCCUGCUUUCAACUUAAAUCACUGAGGCAUCUCUACUGUUCUGUGAGCAUCAGGACUGUAGCGCUUGCCACCACCAUGAGAGUUGUUAAGCAGCCUUUCUGUGGAGGGUGGGAAUGACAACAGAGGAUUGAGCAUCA,0.0973 ratio
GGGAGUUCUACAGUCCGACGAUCAUCCAGUACUCCAAUCACAAAGAACUAAAGACAGAUAAUACAUUAAACCAACGUGCUCAGGCAGUUCUUCAAGCUGUGACAGCUGUCCAGACAGCAAAUACUCCUCUUAGUGGCACCACACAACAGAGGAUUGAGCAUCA,0.404 ratio
